Experimental data from different studies.
Every numbered part comes from another study and shows a few of its results, in no order.

Study 1
Target: Transcription factor Sp1 (SP1, Homo sapiens, UniProt P08047, residues 1-785, full length assumed)
Sequence of UniProt P08047 (whole entry, looked up): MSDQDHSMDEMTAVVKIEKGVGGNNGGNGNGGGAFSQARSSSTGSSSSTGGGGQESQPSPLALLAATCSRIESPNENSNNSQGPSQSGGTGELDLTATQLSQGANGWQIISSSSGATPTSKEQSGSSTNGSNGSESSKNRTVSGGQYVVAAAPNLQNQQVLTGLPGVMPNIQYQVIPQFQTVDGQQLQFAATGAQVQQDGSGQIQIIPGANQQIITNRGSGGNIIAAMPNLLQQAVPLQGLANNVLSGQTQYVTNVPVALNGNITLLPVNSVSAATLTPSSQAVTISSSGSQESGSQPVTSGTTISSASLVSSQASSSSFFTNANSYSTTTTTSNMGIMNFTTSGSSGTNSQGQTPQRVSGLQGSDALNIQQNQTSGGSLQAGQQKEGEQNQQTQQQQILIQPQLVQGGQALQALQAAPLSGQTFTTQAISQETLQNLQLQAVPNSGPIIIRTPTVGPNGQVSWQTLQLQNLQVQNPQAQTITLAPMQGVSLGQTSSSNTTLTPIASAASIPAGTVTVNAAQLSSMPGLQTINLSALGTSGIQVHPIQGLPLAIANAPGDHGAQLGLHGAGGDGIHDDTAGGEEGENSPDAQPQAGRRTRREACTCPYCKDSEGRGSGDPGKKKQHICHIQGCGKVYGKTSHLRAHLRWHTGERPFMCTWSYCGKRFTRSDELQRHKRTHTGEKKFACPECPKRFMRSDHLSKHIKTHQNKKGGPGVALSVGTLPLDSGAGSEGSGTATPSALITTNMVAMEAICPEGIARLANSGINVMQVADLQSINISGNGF
Method: protein-binding microarray
Molecule type: double-stranded DNA, one strand shown
Sample: in vitro
Concentration: not given
Setting: k-mer, scored over probes, only values ≥0.25
Reading: higher = stronger binding
Strand | E-score
CCCGCCTC | 0.439
ATATTCCA | 0.272
CAACAACA | 0.307

Study 2
Target: Interferon regulatory factor 5, full length, phosphomimetic (IRF5, Homo sapiens, UniProt Q13568-2, residues 1-514, K96S/S451D/S453D/S456D/S462D)
Method: protein-binding microarray
Molecule type: double-stranded DNA, one strand shown
Sample: in vitro
Concentration: 250 nM
Setting: 60-bp whole probe
Together with: salmon DNA 0.4 mg/ml
Reference: random background probes
Reading: higher = stronger binding
Shared flanks, not repeated: GCCTAGCAC … GTCTTGATTCGCTTGACGCTGCTG
Strand | log fluorescence [z-score]
TTAGGACCGGACACTGGGTTAGTGCTA | -0.681
GACGGACTGGGGACCGGGGACGTGCTA | -0.7
TTAGATCTCAGACTAGATTAGTGCTAG | 0.00628
GGCACCCAAGCTCTTGTTTGGTGCTAG | -0.845
GACGGTATCGACTTACGGGACGTGCTA | 2.64

Study 3
Target: Sal-like protein 4, full length isoform B (SALL4, Homo sapiens, UniProt Q9UJQ4-2, residues 1-616)
Method: universal PBM
Molecule type: double-stranded DNA, one strand shown
Sample: in vitro
Concentration: not given
Setting: 8-mer, flanks averaged, mean of replicates
Reading: higher = stronger binding
Strand | E-score
AGTTGGCA | 0.0721
AATGTAGA | 0.216
TCACCAGA | -0.176
TCGTCTAA | -0.0615
AAGGCTCA | -0.0972

Mixed results
Molecule | target | test | test system | setting | how to read | measurement | result
PhoQ, residues 284 288 289 292 302 303 SNGLAW | PhoP, residues 12 14 15 18 19 FWNTL (Escherichia coli, UniProt P23836) | Sort-seq, measured: YFP reporter | E. coli | PhoQ-PhoP variant library, together with: 10 µM Mg2+ | reference: high Mg2+ state, higher = stronger signaling | fold induction | 3.86

A few entries again (study 2):
Strand | log fluorescence [z-score]
GACGGACTGGGGACCGGGGACGTGCTA | -0.7
TTAGATCTCAGACTAGATTAGTGCTAG | 0.00628
